Published values pooled from the literature.
A part holds a random share of what one study measured.
Chain of UniProt Q9UJQ4 (whole entry, looked up): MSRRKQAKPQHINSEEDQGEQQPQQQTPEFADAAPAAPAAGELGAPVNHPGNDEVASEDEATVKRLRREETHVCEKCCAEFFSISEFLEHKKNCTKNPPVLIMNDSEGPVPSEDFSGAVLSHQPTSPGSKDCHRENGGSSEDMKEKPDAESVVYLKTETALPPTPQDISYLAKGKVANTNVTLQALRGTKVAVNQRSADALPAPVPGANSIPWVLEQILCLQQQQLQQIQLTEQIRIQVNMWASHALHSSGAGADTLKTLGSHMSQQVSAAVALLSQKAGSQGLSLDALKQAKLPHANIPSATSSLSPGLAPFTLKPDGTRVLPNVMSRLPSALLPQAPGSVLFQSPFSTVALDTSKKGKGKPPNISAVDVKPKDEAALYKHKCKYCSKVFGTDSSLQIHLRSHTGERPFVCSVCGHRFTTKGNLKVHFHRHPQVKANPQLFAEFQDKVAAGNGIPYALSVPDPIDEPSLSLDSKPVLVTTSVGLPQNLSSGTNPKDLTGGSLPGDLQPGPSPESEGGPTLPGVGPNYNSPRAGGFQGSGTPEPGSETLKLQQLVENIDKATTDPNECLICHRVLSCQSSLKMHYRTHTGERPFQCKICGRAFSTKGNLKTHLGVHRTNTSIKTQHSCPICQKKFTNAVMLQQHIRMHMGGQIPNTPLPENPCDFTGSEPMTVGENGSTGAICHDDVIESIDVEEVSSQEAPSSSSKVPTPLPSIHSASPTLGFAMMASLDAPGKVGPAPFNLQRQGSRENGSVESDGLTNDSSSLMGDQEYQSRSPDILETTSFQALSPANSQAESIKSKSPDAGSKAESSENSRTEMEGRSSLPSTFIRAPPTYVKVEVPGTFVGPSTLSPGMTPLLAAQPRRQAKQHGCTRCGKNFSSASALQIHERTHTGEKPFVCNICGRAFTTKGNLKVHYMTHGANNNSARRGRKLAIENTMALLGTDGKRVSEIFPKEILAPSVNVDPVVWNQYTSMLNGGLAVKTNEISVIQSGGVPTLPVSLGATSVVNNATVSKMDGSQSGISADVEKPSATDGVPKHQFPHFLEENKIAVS

Sample 1
Target: Histone acetyltransferase KAT6A, winged helix 1, GST fusion (KAT6A, Homo sapiens, UniProt Q92794, residues 1-85)
Technique: protein binding microarray
Molecule type: double-stranded DNA, one strand shown
Sample: in vitro
Concentration: not given
Notes: 8-mer, flanks averaged, mean of 2 arrays, mostly near background
Relative to: not given
Reading: higher = stronger binding
Quantity: E-score
Residues (chain): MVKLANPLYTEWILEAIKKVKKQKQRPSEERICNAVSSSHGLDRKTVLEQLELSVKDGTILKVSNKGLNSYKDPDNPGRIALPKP
GCCTGTTA: -0.119
TATCAGCA: -0.15
AAGGGCAA: -0.0751

Further values, each from its own experiment
UNK zinc fingers 1-6, GST-SBP tag: RING finger protein unkempt homolog, zinc fingers 1-6, GST-SBP tag (UNK, Homo sapiens, UniProt Q9C0B0, residues 30-357)
Chain of UniProt Q9C0B0 (30-357, looked up): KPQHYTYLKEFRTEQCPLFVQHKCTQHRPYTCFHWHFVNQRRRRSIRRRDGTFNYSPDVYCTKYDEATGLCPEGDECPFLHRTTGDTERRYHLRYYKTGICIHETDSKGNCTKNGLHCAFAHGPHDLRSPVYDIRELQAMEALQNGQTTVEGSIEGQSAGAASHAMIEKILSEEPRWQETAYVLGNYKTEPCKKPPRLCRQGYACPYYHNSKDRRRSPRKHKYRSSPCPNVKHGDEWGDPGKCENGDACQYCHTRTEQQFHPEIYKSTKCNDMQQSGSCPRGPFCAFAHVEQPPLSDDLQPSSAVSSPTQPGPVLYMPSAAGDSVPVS
GGGAGUUCUACAGUCCGACGAUCGUCCAGCCAGGGAGUGUAGCAGACAGGGAUCAAAGAUUAAAGGAAAAUGAUCAAAUAUUGGCCAUUAAUCACACGCCAUUGGAUCAGAACAUUUCCCAUCAGCAAGCAAUUGCAUUAUUACAACAGAGGAUUGAGCAUCA  bound/input enrichment (UNK zinc fingers 1-6, GST-SBP tag; RNA Bind-n-Seq; RNA, in vitro; not given, RNA with constant flanks, human and mouse sites, ends assumed; relative to: input RNA pool, higher = stronger binding): 0.461 ratio
CATAACGC  E-score (Sal-like protein 4, full length isoform A (SALL4, Homo sapiens, UniProt Q9UJQ4, residues 1-1053); universal PBM; double-stranded DNA, one strand shown, in vitro; 600 nM, 8-mer, flanks averaged, mean of replicates; higher = stronger binding): 0.196
GGGAGUUCUACAGUCCGACGAUCUACGAAUUGUUAAAAUGGAAUGCAAGUUUUUCAAAAGCCCAGGUCUAAAUGUAAUGGUUGGUUUAUUGUUCUAUAACCCCAGCCCAUCAUUUUCUGUGUAAAUCAUAAACAAUAAACAGACAACAGAGGAUUGAGCAUCA  bound/input enrichment (UNK zinc fingers 1-6, GST-SBP tag; RNA Bind-n-Seq; RNA, in vitro; not given, RNA with constant flanks, human and mouse sites, ends assumed; relative to: input RNA pool, higher = stronger binding): 0.181 ratio
PhoQ, residues 284 288 289 292 302 303 TLSLKA  fold induction (PhoP, residues 12 14 15 18 19 NMSFL (Escherichia coli, UniProt P23836); Sort-seq, item: YFP reporter; E. coli; PhoQ-PhoP variant library, with: 10 µM Mg2+; relative to: high Mg2+ state, higher = stronger signaling): 1.8
GGGAGUUCUACAGUCCGACGAUCGAUUCUCAGGGUAAAAAGAAAUGGAAAAAAACAUGCUGUCUCCCGUCUUUUAUAAUCUUUCUUUUUAUUGUUGGCUGCAUUAUUGCUGGAAUUACUCUUUUGGCUAUAUUCCGAGUUGACCAACAGAGGAUUGAGCAUCA  bound/input enrichment (UNK zinc fingers 1-6, GST-SBP tag; RNA Bind-n-Seq; RNA, in vitro; not given, RNA with constant flanks, human and mouse sites, ends assumed; relative to: input RNA pool, higher = stronger binding): 0.331 ratio
